{"data": "Experimental data collected from several papers", "note": "Lines come from different studies, so protocols differ. Numbers after ± are the reported error."}
{"Compound": "CC(=O)N[C@@H](CC(N)=O)C(=O)NCC(=O)N[C@@H](CCCNC(=N)N)C(=O)N[C@@H](C)C(N)=O", "test": "1H NMR", "system": "sodium phosphate buffer 50 mM", "setting": "pH 7.4, 28 °C", "endpoint": "rate constant succinimide to β-Asp", "result": "0.107 h⁻¹"}
{"Compound": "CC(C)(O)c1ccc(N2Cc3c(ccnc3-c3ccc(F)cc3OCC(F)(F)F)C2=O)cc1", "system": "mouse, plasma", "setting": "300 mg/kg, 6 h", "how to read": "baseline: vehicle", "endpoint": "glucosylceramide level", "result": "50 ± 4%"}
{"Compound": "C[C@H](NC(=O)COC(=O)[C@H](C)NC(=O)CO)C(=O)O", "system": "water", "setting": "pH 4, 25 °C", "endpoint": "depolymerization rate constant", "result": "0.005 h⁻¹"}
{"Compound": "CC(C)[C@H](NC(=O)CN)C(=O)N[C@@H](CCCCN)C(=O)NCC(=O)N[C@@H](CC(=O)O)C(=O)N[C@@H](CCCCN)C(=O)NCC(=O)N[C@@H](CC(N)=O)C(=O)N1CCC[C@H]1C(=O)NCC(=O)N[C@@H](Cc1c[nH]c2ccccc12)C(=O)N1CCC[C@H]1C(=O)NCC(=O)N[C@@H](C)C(=O)N1CCC[C@H]1C(=O)O", "system": "SCC-9 squamous cell carcinoma, human", "setting": "100 µg/mL coating, peptide-coated plates", "how to read": "baseline: input cells", "endpoint": "cell adhesion", "result": "1.9%"}
{"Compound": "Cc1nc(C)c(C=[N+]([O-])C(C)(C)C)nc1C", "test": "Western blot, refers to: Nrf2", "system": "mouse, MPTP model, substantia nigra cytosol", "setting": "30 mg/kg", "endpoint": "protein level increase", "result": "85.3%"}
{"Compound": "Cc1cc(N)c2cc(NC(=O)C(=O)Nc3ccc4nc(C)cc(N)c4c3)ccc2n1", "system": "mouse", "setting": "intravenous, 16 mg/kg, added: fondaparinux 0.5 mg/kg s.c.", "how to read": "baseline: control", "endpoint": "decrease in anti-FXa activity", "result": "93 ± 2.8%"}
{"Compound": "Cc1ncsc1-c1ccc(C(CO)NC(=O)C2CC(O)CN2C(=O)C(C(C)C)n2cc(-c3ccc(COc4c(-c5c(C)c(F)cc6[nH]ncc56)c(C5CC5)cc5c(N6CC7CC6CN7)nc(OC6CCOCC6)nc45)cc3)nn2)cc1 (stereo not shown)", "test": "immunoblot, refers to: p-ERK and DUSP4", "system": "mouse PK-59 xenograft, tumour", "setting": "intravenous, single dose, NG, 24 h", "endpoint": "protein level", "result": "decreased"}
{"Compound": "COc1ccc(C2CC(c3ccc(C)cc3)=Nc3ccccc3S2)cc1 (stereo not shown)", "system": "Wistar rat, STZ-induced diabetes", "setting": "oral, 10 mg/kg once daily, day 1", "endpoint": "blood glucose", "result": "373 ± 4.11 mg/dL"}
{"Compound": "COc1ccc2c(c1)c(CC(=O)OCC(=O)c1ccccc1)c(C)n2C(=O)c1ccc(Cl)cc1", "test": "hot plate test", "system": "BALB/c mice", "setting": "50 mg/kg, 60 min", "endpoint": "latency of nociceptive response", "result": "14.1 ± 1 s"}
{"Compound": "CCCCCCCCCn1cc(C(N)(CO)CO)nn1", "system": "APP/PS1 mouse, cortex, hippocampus", "setting": "dose not given", "endpoint": "activated microglia and astrocytes", "result": "decreased"}
{"Compound": "CCN(C(=O)c1cc(F)ccc1Oc1nncnc1N1CCC2(C1)CN([C@H](CCCN(C)CCOC)C(C)C)C2)C(C)C", "system": "mouse, sample A AML PDX", "setting": "all dose levels", "how to read": "baseline: vehicle", "endpoint": "increase in lifespan", "result": "> 169%"}
{"Compound": "N#Cc1cc(C(=O)OCC[18F])c(C(F)(F)F)nc1N1CCN(C(=O)Cc2ccccc2)CC1", "test": "PET blocking", "system": "C57BL/6 mouse, brain", "setting": "60 min, self-blocking", "how to read": "baseline: baseline", "endpoint": "decrease of SUV", "result": "72.3%"}
{"Compound": "Cc1cc2c(cc1O)C=C1C=CC(=O)C(C)(C)[C@H]1CC2", "system": "mouse AOM/DSS colitis-associated cancer", "setting": "100 mg/kg", "endpoint": "small intestine adenomas per mouse", "result": 4.1}
